Results from different studies.
Each numbered part is a random draw from the data of one study; scales do not carry over between parts. Substitutions count along the parent as printed.

Block 1
Target: CCNA2, cyclin fold, Cln2 fusion (human)
Technique: yeast growth competition, sequencing
Sample: yeast
Setting: strong parent motif
Baseline: not given
Reading: higher = stronger binding
Parent: SCAPER docking peptide (human); SNARRSLNFGGST
Substitution | normalised enrichment score
G10T | 6.2
S1C | 6.84
R5V | 3.16
T13S | 6.53
N8T | 5.06
T13I | 5.96
A3V | 6.14
S6G | 4.85
L7N | 0.812
S1W | 6.98
A3M | 2.89
L7Y | 1.05
T13K | 6.73
S12P | 7.26
R4G | 0.632
G10F | 6.04
A3I | 4.66
R4E | -0.638
A3P | 4.71
L7P | 0.678
S6F | 6.16
R5T | 1.9
L7V | 0.537
R5G | 0.197
S12N | 6.75

Block 2
Target: Interferon regulatory factor 7, full length, phosphomimetic (IRF7, Homo sapiens, UniProt Q92985, residues 1-503, S101K/S471D/S472D/S475D/S476D/S477D/S483D/S484D/S487D)
Chain of UniProt Q92985 (whole entry, unmodified, looked up): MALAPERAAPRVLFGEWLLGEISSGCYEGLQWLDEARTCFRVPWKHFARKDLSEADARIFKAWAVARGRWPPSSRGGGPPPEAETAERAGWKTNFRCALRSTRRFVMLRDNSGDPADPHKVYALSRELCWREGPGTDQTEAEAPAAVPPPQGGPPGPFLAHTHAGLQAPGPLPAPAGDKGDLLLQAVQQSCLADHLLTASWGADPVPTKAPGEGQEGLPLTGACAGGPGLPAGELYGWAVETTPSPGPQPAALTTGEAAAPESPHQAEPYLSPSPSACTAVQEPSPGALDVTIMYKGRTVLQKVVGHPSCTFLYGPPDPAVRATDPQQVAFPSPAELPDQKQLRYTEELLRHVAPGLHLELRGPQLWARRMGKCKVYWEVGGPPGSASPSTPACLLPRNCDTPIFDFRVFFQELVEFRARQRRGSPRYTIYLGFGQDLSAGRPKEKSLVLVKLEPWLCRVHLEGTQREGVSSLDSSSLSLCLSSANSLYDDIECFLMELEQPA
Technique: protein-binding microarray
Molecule type: double-stranded DNA, one strand shown
Sample: in vitro
Tested at: 250 nM
Setting: 60-bp whole probe
With: salmon DNA 0.4 mg/ml
Baseline: random background probes
Reading: higher = stronger binding
Shared flanks, not repeated: GCCTAGCAC … GTCTTGATTCGCTTGACGCTGCTG
Strand | log fluorescence [z-score]
GACGGTCTCGGACTGGTGACGTGCTAG | -0.227
TTAGGTATCGGTCTCGGGTAGTGCTAG | 1.07
TTAGGCTTCGACTATCGGTTAGTGCTA | -0.381
GACGGGCTGGGGTATCGGGACGTGCTA | -0.76
TTAGTTATCGGGTTTCGGTTAGTGCTA | 6.79
GGACCGACCCCTCCATCCCTGTGCTAG | -0.537
AACGGTTTCGGGACTGGGGACGTGCTA | 4.35
GACGGTATCGGTCTCGGGACGTGCTAG | 0.546
TCAATTATTGTCTTCCCACTGTGCTAG | 0.656
TGAGGTATCCTTCTCCTTTAGTGCTAG | 0.139
TTAGGTATCGGGCCTGGGTTAGTGCTA | 0.135
GACGGACTGCACTATCGGGACGTGCTA | -0.907
GACGGACTGGGTCTCGGGGCGTGCTAG | -0.53
TCATTTACCACATTCTCACTGTGCTAG | 2.12
CTCCCTTTCTCTCTGTGACAGTGCTAG | 1.29
TTAGGTATCGTTTTCGGTTAGTGCTAG | 7.03
GTAGGACTGCTTCTCCTTTAGTGCTAG | 0.341
TCATTACTTTCTATCTCACTGTGCTAG | 1.43
TTAGGTATCGACTTGCGGTTAGTGCTA | 2.07

Block 3
Target: RING finger protein unkempt homolog, zinc fingers 1-6, GST-SBP tag (UNK, Homo sapiens, UniProt Q9C0B0, residues 30-357)
Chain of UniProt Q9C0B0 (30-357, looked up): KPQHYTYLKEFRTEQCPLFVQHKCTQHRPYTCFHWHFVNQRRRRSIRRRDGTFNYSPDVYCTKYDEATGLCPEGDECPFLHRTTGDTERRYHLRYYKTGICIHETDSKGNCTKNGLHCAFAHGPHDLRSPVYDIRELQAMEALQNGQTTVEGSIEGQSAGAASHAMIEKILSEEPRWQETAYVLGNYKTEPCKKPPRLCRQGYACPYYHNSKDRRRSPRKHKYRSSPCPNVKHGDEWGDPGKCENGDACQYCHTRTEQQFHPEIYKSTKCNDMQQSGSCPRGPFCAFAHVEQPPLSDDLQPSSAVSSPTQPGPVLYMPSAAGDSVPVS
Technique: RNA Bind-n-Seq
Molecule type: RNA
Sample: in vitro
Tested at: not given
Setting: RNA with constant flanks, human-mouse chimeric sites, ends assumed
Baseline: input RNA pool
Reading: higher = stronger binding
Shared flanks, not repeated: GGGAGUUCUACAGUCCGACGAUC … CAACAGAGGAUUGAGCAUCA
Strand | bound/input enrichment [ratio]
GUGACUGGUGUUAAGAUUUACCCUCAGCAAAGAAGUGCAGUAGUCACCAUAAUUCCAUCUAUAGUGAGUGCCAGUCAGAUUGUGGAGCUGGUCCCAGACCUCAGUUUAGACAUGGGAACU | 0.921
AAAGCCCUUGAAGAAAAAAAAAACUCGAACAGAUUUAACAAGGGUAGCCAGCUUGGAGUCUAGCAACUUGCCAAUGUGUUUACCAAUCUGGGGGCUUGUUUUUCUUUUCUUCUUUCAAAU | 0.366
UAAAUUAGGGCUGCCGUUUUCUGUUUCUCCCUGGGCUGCGGAAAGCCAGGCGGUUUUAUCUAGCUUAUACAAGGCUGCUGGAGCUUGCUCUUUUUUUCCACGAGGGUGUUUUUGGCUGCA | 0.843
GGCUGCUGGUGACUGUCCUGGAGUGGCUGGAGUUCCCGCCGGAGCGCGGCCAGACUAAUUUUAGAAAAUGCCAAGUAGGAAGUUUGUCGAUGGUGAAGUGGUCAGAGGCCGAUGGCCUGG | 1.95
GUAAUGGACGUCAACACUGCUCUACAAGAGGUGCUGAAGACCGCCCUCAUCCACGAUGGCCUAGCACGUGGAAUUCGCGAAGCUGCCAAAGCCUUAGACAAGCGCCAAGCCCAUCUUUGU | 0.237
AGAAUCUUGGGACUGUUUUACUUAAUUGGUCAUUGAUAGCUUAACAAGCAUGGAGAUAAGAUUAGAAGUUUUGACAUCAACAGGUAUUAAGCAGAAAAAACCAUGGCCACGUGUCUCCUG | 0.344
UUCAAAGGCUGUGUUAUCUGUGUCAUUACUUGGGAGACUCUGGGGGAGGGAAAUUCUGUUCUUUUGUUUAAUUUUCCCCCAAAUGAAGCCAAAGUGUGUGUUGAAGAACUGAGAAAAAAU | 0.22
ACACAAUAUGAGACCAACAGCUUGGACUUCAAAGUCGGGGCAGAUGGGACAGUCUUCGCCACCCGGGAGCUGCAGGUCCCCUCCGAGCAGGUGGCGUUCACGGUGACUGCAUGGGACAGC | 0.179

Block 4
Target: ABI1, truncated, D143A, DHFR fusion (Arabidopsis thaliana)
Technique: DHFR PCA, deep sequencing
Sample: yeast
Setting: methotrexate growth selection, single substitutions
With: (+)-ABA 0.11 µM
Baseline: wild-type fitted maximum
Reading: higher = stronger binding
Parent: PYL1, truncated, DHFR fusion (Arabidopsis thaliana); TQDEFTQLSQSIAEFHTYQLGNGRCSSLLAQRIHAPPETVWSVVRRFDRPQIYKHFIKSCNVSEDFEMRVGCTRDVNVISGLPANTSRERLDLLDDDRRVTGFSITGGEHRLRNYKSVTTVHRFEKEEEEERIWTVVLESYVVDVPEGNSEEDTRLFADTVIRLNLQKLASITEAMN; partner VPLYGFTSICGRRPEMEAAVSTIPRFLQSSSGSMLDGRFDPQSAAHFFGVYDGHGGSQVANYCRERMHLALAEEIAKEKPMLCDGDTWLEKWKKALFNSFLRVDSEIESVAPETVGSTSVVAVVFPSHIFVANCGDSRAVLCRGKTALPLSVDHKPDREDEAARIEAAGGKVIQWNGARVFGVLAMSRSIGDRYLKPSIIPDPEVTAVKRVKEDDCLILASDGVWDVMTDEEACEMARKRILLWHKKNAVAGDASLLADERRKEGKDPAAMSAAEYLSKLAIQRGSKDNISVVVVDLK
Substitution | relative binding score
T135R | 5.53%
A170D | 3.62%
S59E | 31.9%
S104P | -4.96%
Q2D | 53.3%
R123A | 54.3%
I162T | 5.14%
N85E | 47.5%
Q19R | 33.6%
F15R | -8.06%
E151N | 1.29%
H110C | 39.6%
V145D | -12%
V44M | 5.38%
D3T | 26%
S11W | 20.5%
T73D | -1.36%
E4W | 24.2%
L82R | 4.99%
Q2K | 31.9%
R88Q | 38.5%

For quick reference, copied from above (block 1):
Substitution | normalised enrichment score
N8T | 5.06
R5T | 1.9
S6F | 6.16
R5V | 3.16
S6G | 4.85
